Experimental data from different studies.
Numbers after ± are the reported error.

CC(C)(C)C(=O)OCOP(=O)(OCOC(=O)C(C)(C)C)C1CCCN(O)C1=O (centres unmarked)  GI50 (T47D): 0.543 µM
CSCC[C@H](NC(=O)[C@@H](NC(=O)[C@H](CCC(N)=O)NC(=O)[C@H](CO)NC(=O)[C@@H](N)C(C)C)[C@@H](C)O)C(=O)N[C@@H](CCCNC(=N)N)C(=O)N[C@@H](CCC(N)=O)C(=O)N[C@H](C(=O)N[C@@H](C)C(=O)N[C@H](C(=O)N1CCC[C@H]1C(=O)N[C@@H](CC(C)C)C(=O)N[C@@H](CC(C)C)C(=O)N[C@@H](Cc1c[nH]c2ccccc12)C(=O)N[C@@H](Cc1ccccc1)C(=O)N[C@@H](Cc1c[nH]c2ccccc12)C(=O)N[C@H](C(=O)NCC(=O)N[C@@H](CO)C(=O)N[C@@H](CC(C)C)C(=O)NCCOCCOCCOCCOCCOCCOCCOCCOCCOCCOCCOCCOCCC(=O)N[C@@H](CS)C(N)=O)[C@@H](C)O)C(C)C)[C@@H](C)O  selectivity ratio (H2126 lung adenocarcinoma; cell binding, phage binding, item: output/input phage; 10 min, 37 °C; reference: control phage): 0.91 ± 0.55
O=C(C[Se]C(=O)C12CC3CC(CC(C3)C1)C2)Nc1cccc(C(F)(F)F)c1  CC50 (NCI60 leukaemia subpanel; NCI60 five-dose screen): 36 µM
CC[C@H](C)[C@H](NC(=O)[C@H](Cc1c[nH]c2ccccc12)NC(=O)[C@H](CCCCN)NC(=O)[C@H](CO)NC(=O)[C@H](CC(C)C)NC(=O)[C@H](Cc1ccccc1)NC(=O)[C@@H](NC(=O)[C@H](CCCCN)NC(=O)[C@H](CC(C)C)NC(=O)[C@H](CC(C)C)NC(=O)[C@H](CCCCN)NC(=O)[C@@H]1CCCN1)[C@@H](C)O)C(=O)NCC(=O)N[C@@H](CS)C(N)=O  EC50 (human red blood cells; pH 7.4; reference: Triton X-100): > 100 µM
CC(C)C[C@@H](/C=C/[C@H](Cc1ccccc1)C(=O)N1CCC[C@H]1C(=O)N[C@H](C(=O)N[C@@H](CCCNC(=O)OCc1ccccc1)C(=O)NC1CC(C)(C)N([O])C(C)(C)C1)C(C)C)NC(=O)OC(C)(C)C  EC50 (BJeLR; protection from ferroptosis, PrestoBlue; 24 h, together with: erastin 10 µM): 0.086 µM
O=C(O)c1ccc(-c2nc(-c3ccccc3Cl)c3sccn23)cc1  CD71-positive cells (HEL; flow cytometry; 0.01 mM): 76.6%
CC(C)CC(O)(CC(C)C)c1cn(C(=O)N2CCCC2)nn1  SILAC ratio per peptide (mouse T cells; N-terminal labelling proteomics, item: Scye1 N-terminal peptide; 0.001 µM, 6 h; reference: DMSO): 0.81
CC(C)[C@H](NC(=O)[C@H](CCCNC(=N)N)NC(=O)[C@@H]1CCCN1C(=O)[C@@H](NC(=O)[C@H](C)NC(=O)[C@H](Cc1ccc(O)cc1)NC(=O)[C@H](CCC(N)=O)NC(=O)[C@H](CCCCN)NC(=O)[C@H](CCCNC(=N)N)NC(=O)[C@@H]1CCCN1C(=O)[C@H](CCC(=O)O)NC(=O)[C@@H](NC(=O)[C@H](C)N)[C@@H](C)O)[C@@H](C)O)C(=O)N[C@@H](Cc1ccccc1)C(=O)N[C@@H](Cc1c[nH]c2ccccc12)C(=O)N[C@H](C(=O)N[C@@H](CC(=O)O)C(=O)N[C@@H](C)C(=O)N1CCC[C@H]1C(=O)NCC(=O)NCCOCCOCCOCCOCCOCCOCCOCCOCCOCCOCCOCCOCCC(=O)N[C@@H](CS)C(N)=O)[C@@H](C)O  selectivity ratio (H2882 lung carcinoma; cell binding, phage binding, item: output/input phage; 10 min, 37 °C; reference: control phage): 0.91 ± 0.39
O=C(C[Se]C(=O)c1cccnc1Nc1cccc(C(F)(F)F)c1)Nc1cccc(C(F)(F)F)c1  CC50 (NCI60 melanoma subpanel; cytotoxicity, inhibitor; five-dose): 6.85 µM
CCCCCCCC(=O)N[C@@H](CCCNC(=N)N)C(=O)N[C@@H](Cc1c[nH]c2ccccc12)C(=O)N[C@@H](CCCCN)C(=O)N[C@H](C(=O)N[C@@H](Cc1ccccc1)C(=O)N[C@@H](CCCCN)C(=O)N[C@@H](CCCCN)C(=O)N[C@H](C(=O)N[C@@H](CCC(=O)O)C(=O)N[C@@H](CCCCN)C(=O)N[C@H](C(=O)NCC(=O)N[C@@H](CCC(N)=O)C(=O)N[C@@H](CC(N)=O)C(=O)N[C@H](C(=O)N[C@@H](CCCNC(=N)N)C(=O)N[C@@H](CC(=O)O)C(=O)NCC(=O)N[C@H](C(=O)N[C@H](C(=O)N[C@@H](CCCCN)C(=O)N[C@@H](C)C(=O)NCC(=O)N1CCC[C@H]1C(=O)N[C@@H](C)C(=O)N[C@H](C(=O)N[C@@H](C)C(=O)N[C@H](C(=O)N[C@H](C(=O)NCC(=O)N[C@@H](CCC(N)=O)C(=O)N[C@@H](C)C(=O)N[C@@H](C)C(=O)N[C@H](C(=O)N[C@H](C(N)=O)[C@@H](C)CC)[C@@H](C)O)C(C)C)C(C)C)C(C)C)C(C)C)[C@@H](C)CC)[C@@H](C)CC)C(C)C)[C@@H](C)CC)[C@@H](C)CC  dead cells (MX1; trypan blue exclusion; 6 µM, 24 h): 40%
Cc1cc(Oc2nc(N3CC[C@@H](c4ccncc4)C3)ncc2F)[nH]n1  IC50 (NCI-H358M; cell proliferation): 49 µM
O=C(C[Se]C(=O)c1ccc2ccccc2n1)Nc1cccc(C(F)(F)F)c1  CC50 (NCI60 leukaemia subpanel; NCI60 five-dose screen): 10.5 µM
NC(=O)N/N=C/c1ccc(OCc2cccc(F)c2)cc1  glutathione peroxidase activity (OD450) (IMR-32; item: GPX3; 400 µg/mL, 24 h; higher = more activity): 0.104 a.u.
COc1ccccc1-c1ccncc1C(=O)Nc1nnc(OCc2ccc(Cl)cc2)s1  colony survival (RPE-1 BRCA1 WT parental; 1 µM, run 2; reference: untreated): 81.6%
CC(C)C[C@H](NC(=O)[C@H](CC(=O)O)NC(=O)CNC(=O)[C@@H](N)CCCNC(=N)N)C(=O)N[C@@H](C)C(=O)N[C@H](C(=O)N[C@@H](CC(C)C)C(=O)N[C@@H](CCCNC(=N)N)C(=O)N[C@@H](CCC(N)=O)C(=O)N[C@@H](CC(C)C)C(=O)N[C@@H](C)C(=O)N[C@@H](CCC(N)=O)C(=O)N[C@@H](CCC(=O)O)C(=O)N[C@@H](CC(=O)O)C(=O)NCC(=O)N[C@H](C(=O)N[C@H](C(=O)NCC(=O)N[C@H](C(=O)N[C@@H](CCCNC(=N)N)C(=O)NCCOCCOCCOCCOCCOCCOCCOCCOCCOCCOCCOCCOCCC(=O)N[C@@H](CS)C(N)=O)C(C)C)C(C)C)C(C)C)[C@@H](C)O  selectivity ratio (H2122 lung adenocarcinoma; cell binding, phage binding, item: output/input phage; 10 min, 37 °C; reference: control phage): 48 ± 6
CC1CCC2C(C)C(OC(=O)CCC(=O)N3CCC(Nc4ccc(S(=O)(=O)NC(=O)c5ccc(N6CCN(CC7=C(c8ccc(Cl)cc8)CC(C)(C)CC7)CC6)cc5Oc5cnc6[nH]ccc6c5)cc4[N+](=O)[O-])CC3)OC3OC4(C)CCC1C32OO4 (centres unmarked)  necrotic cells (THP-1; annexin V/PI flow cytometry, item: annexin V-/PI+; 0.8 µM, 24 h): 0.8%
C[C@@H]1O[C@H]2O[C@@H]3C4(O)C(=O)c5cccc(O)c5C(=O)C4(O)O[C@]3(C)[C@]21O (some centres unmarked)  selectivity index (A549 and Vero; MTT; reference: CC50 Vero over EC50 A549): 0.57

For quick reference, copied from above:
C[C@@H]1O[C@H]2O[C@@H]3C4(O)C(=O)c5cccc(O)c5C(=O)C4(O)O[C@]3(C)[C@]21O (some centres unmarked)  selectivity index (A549 and Vero; MTT; reference: CC50 Vero over EC50 A549): 0.57
Cc1cc(Oc2nc(N3CC[C@@H](c4ccncc4)C3)ncc2F)[nH]n1  IC50 (NCI-H358M; cell proliferation): 49 µM
